Measured values gathered from unrelated publications.
Lines come from different studies, so protocols differ. ± marks the error that the study gave.

| Compound | tested on | test | test system | setting | scale | measurement | value |
| --- | --- | --- | --- | --- | --- | --- | --- |
| [64Cu+2].c1cnc(CNCc2ccc(CN3CCCN4CCNCCCN(CC4)CC3)cc2)nc1 | CXCR4 |  | NOD/SCID mouse, U87 and U87-stb-CXCR4 xenografts, pancreas | iv, 90 min, ex vivo |  | tissue uptake | 1.84 ± 0.29 %ID/g |
| NS(=O)(=O)Nc1ncnc(OCCOc2ncc(Br)cn2)c1-c1ccc(Br)cc1 |  | refers to: compound formation | Sprague-Dawley rat female, liver microsomes | 1500 mg/kg daily, 4 weeks |  | Km | 3.8 ± 1 µM |
| C=CCC1=C[C@]2(C[C@H](O)C(C)(C)O2)C2=C(C[C@@H]3C[C@@H]4[C@@H](C[C@]3(C)O2)C(=C)CCCC4(C)C)C1=O | coxsackievirus B3 | cytopathic effect | Vero, Nancy |  | relative to: CC50 over IC50 | selectivity index | 4.3 |
| N=C(N)c1ccc(-c2ccc(-c3cccs3)s2)cc1 | Salmonella typhimurium | liquid broth OD | TA1535 | 100 µM, 15 h | relative to: growth | viability | 51.4 ± 3.8% |
| O=Cc1c(O)ccc2ccccc12 | HUVEC | RNA sequencing, refers to: CASP12 |  | 75 µM, 24 h | relative to: DMSO | log2 fold change | -2.96 |
| [64Cu+2].c1ccc(CNCc2ccc(CN3CCCN4CCNCCCN(CC4)CC3)cc2)nc1 | CXCR4 |  | NOD/SCID mouse, U87 and U87-stb-CXCR4 xenografts, spleen | iv, 120 min, ex vivo |  | tissue uptake | 14.9 ± 2.4 %ID/g |
| N=C(N)c1ccc(-c2ccc(-c3cccs3)o2)nc1 | Salmonella typhimurium | liquid broth OD | TA1535 | 50 µM, 15 h | relative to: growth | viability | 92.5 ± 8% |
| Cc1nn(-c2ccc(S(=O)(=O)N[C@@H](CO)CC(C)C)cc2)c2nn3nnnc3nc12 | PC-3 | PI/Hoechst staining |  | 2 µM, 24 h |  | necrotic cells | 64.5 ± 6.36% |
| Cn1c(=O)oc2ccc(-c3ccc(CC(C#N)NC(=O)C4CNCCCO4)c(F)c3)cc21 (stereo not drawn) |  |  | human | dose not given, single ascending doses, all subjects |  | subjects with ALT increase | 6.7% |
| O=C(O)CCC(NP(=O)(O)OCCC[C@@H](NC(=O)CC[C@H](NC(=O)CCCCCNC(=O)c1ccc([18F])cc1)C(=O)O)C(=O)O)C(=O)O (stereo partly drawn) | CWR22Rv1 tumour model |  | host not given, liver | 4 h, tumour-bearing |  | tracer uptake | 0.167 %ID/g |
| Cc1cc(-c2ccc(NC(=O)[C@H](CCCCNC(=O)CCOCCOCCC(=O)N[C@H](Cc3ccccc3)C(=O)N[C@H]3CSSC[C@@H](C(=O)N[C@H](C(=O)O)[C@@H](C)O)NC(=O)[C@H]([C@@H](C)O)NC(=O)[C@H](CCCCN)NC(=O)[C@@H](Cc4c[nH]c5ccccc45)NC(=O)[C@H](Cc4ccc(O)cc4)NC3=O)NC(=O)CN3CCN(CC(=O)O)CCN(CC(=O)O)CCN(CC(=O)O)CC3)c(C)c2)ccc1N=Nc1ccc2c(S(=O)(=O)O)cc(S(=O)(=O)O)c(N)c2c1O [lutetium-177 labelled] |  |  | metastatic NET patients, liver metastases |  |  | residence time | 1.2 ± 0.96 h |
| CC(=O)N[C@H](C(=O)N[C@H](C(=O)N[C@@H](CCCNC(=N)N)C(=O)N1Cc2ccccc2C[C@H]1C(=O)N[C@@H](Cc1ccccc1)C(N)=O)C1CCCCC1)C(C)C | human PBMC | Bio-Plex multiplex, refers to: IL-13 |  | 250 µg/mL, 24 h |  | cytokine level | < 0.3 pg/mL |

A few entries again:
| Compound | tested on | test | test system | setting | scale | measurement | value |
| --- | --- | --- | --- | --- | --- | --- | --- |
| CC(=O)N[C@H](C(=O)N[C@H](C(=O)N[C@@H](CCCNC(=N)N)C(=O)N1Cc2ccccc2C[C@H]1C(=O)N[C@@H](Cc1ccccc1)C(N)=O)C1CCCCC1)C(C)C | human PBMC | Bio-Plex multiplex, refers to: IL-13 |  | 250 µg/mL, 24 h |  | cytokine level | < 0.3 pg/mL |
